Published values gathered from unrelated publications.
Each line is one published result; not all experiments were run side by side.
Organism: Staphylococcus aureus

Structure (SMILES) | test | system | conditions | MIC
O=C1c2ccccc2NC(c2ccc([N+](=O)[O-])cc2)N1/N=C/c1ccc([N+](=O)[O-])cc1 (stereo not drawn) | microbial growth, broth dilution |  | 24 h, drug-resistant strain, clinical isolate | > 256 µg/mL
CC(C)[C@@H]1NC(=O)[C@@H]2CCCN2C(=O)[C@@H](C)NC(=O)[C@H](CO)NC(=O)[C@H](C)NC(=O)[C@H](C(C)(C)C)NC(=O)[C@H](CCO)NC(=O)[C@H](Cc2c[nH]c3ccccc23)NC(=O)[C@H](CCO)NC(=O)[C@@H](CCN)NC(=O)[C@H](CCC(N)=O)NC(=O)[C@H](CCN)NC(=O)[C@H](Cc2ccc(O)cc2)NC(=O)[C@H]([C@@H](C)O)NC1=O | broth microdilution | MRSA USA300, CAMHB with polysorbate-80 | 16 h | > 64 µg/mL
CC[C@H](C)[C@H](N)C1=N[C@H](C(=O)N[C@@H](Cc2ccccc2)C(=O)N[C@H](CCC(=O)O)C(=O)N[C@H](C(=O)N[C@H]2CCCCNC(=O)[C@H](CC(N)=O)NC(=O)[C@@H](CC(=O)O)NC(=O)[C@H](Cc3c[nH]cn3)NC(=O)[C@@H](Cc3ccccc3)NC(=O)[C@H]([C@@H](C)CC)NC(=O)[C@@H](CCCN)NC2=O)[C@@H](C)CC)CS1 |  | USA300 MRSA | 18 h, 37 °C, with: ZnSO4 0.3 mM | 2 µg/mL
CC[C@H](C)[C@@H]1NC(=O)CNC(=O)[C@H](CCCCN)NC(=O)[C@H](C)NC(=O)[C@H](CCC(=O)O)NC(=O)[C@H](Cc2ccccc2)NC(=O)[C@H](CO)NC(=O)[C@H](CC(C)C)NC(=O)[C@H](C(C)C)NC(=O)[C@H](CC(=O)O)NC(=O)[C@@H](NC(=O)[C@@H](NC(=O)[C@@H](N)C(C)C)[C@@H](C)O)CSSC[C@@H]2NC(=O)[C@H](CO)NC(=O)CNC(=O)CNC(=O)[C@H](CCCCN)NC(=O)[C@H](CCCCN)NC(=O)[C@H](CCCNC(=N)N)NC(=O)[C@H](CC(C)C)NC(=O)[C@H](C)NC(=O)[C@H]([C@@H](C)CC)NC(=O)[C@H](CSSC[C@@H](C(=O)N[C@@H](CCCNC(=N)N)C(=O)N[C@@H](CC(N)=O)C(=O)O)NC(=O)[C@H](C(C)C)NC(=O)[C@H](C)NC(=O)[C@H](C(C)C)NC(=O)CNC(=O)[C@H](CC(N)=O)NC(=O)[C@H](CCC(N)=O)NC2=O)NC(=O)[C@H](Cc2c[nH]cn2)NC(=O)[C@H](CC(C)C)NC(=O)[C@H](C)NC(=O)[C@H](C)NC(=O)[C@H](C)NC(=O)[C@H](CO)NC(=O)[C@H](Cc2c[nH]cn2)NC(=O)[C@H](CC(N)=O)NC(=O)[C@H](C(C)C)NC(=O)[C@H](C)NC1=O | broth microdilution | KCTC 1621 | 16 h, 37 °C | > 100 µM
CN1C(=O)[C@@H]2NC(=O)[C@@H]3NC(=O)[C@@H](c4ccc(O)cc4)NC(=O)[C@H](NC(=O)C(NCc4cc(F)cc(F)c4F)c4ccc(O)cc4)Cc4c[nH]c5cc(ccc45)-c4cc3cc(c4O)Oc3ccc(cc3)C[C@H]1C(=O)N[C@@H](C(=O)O)c1ccc(O)c(c1)Oc1ccc2cc1 (stereo partly drawn) |  | ATCC 33591 MRSA, Mueller-Hinton broth |  | 8 µg/mL
N=C(N)NCCC[C@@H]1NC(=O)[C@H](CCCNC(=N)N)NC(=O)[C@H](CCCNC(=N)N)NC(=O)[C@H](CCCNC(=N)N)NC(=O)[C@H](Cc2c[nH]c3ccccc23)NC(=O)[C@H](CCCNC(=N)N)NC(=O)[C@H](CCCNC(=N)N)NC(=O)[C@@H](N)CCn2cc(nn2)C[C@@H](C(N)=O)NC1=O |  | ATCC 25923 | 24 h, 37 °C | 7.8 µg/mL
CCCCCCCCCCCCCCCC(=O)N[C@@H](Cc1c[nH]cn1)C(=O)N[C@@H](Cc1ccccc1)C(=O)N[C@@H](CCCNC(=N)N)C(=O)N[C@@H](Cc1c[nH]c2ccccc12)C(=O)NCC(=O)N[C@@H](CCCCN)C(=O)N1CCC[C@H]1C(=O)N[C@H](C(N)=O)C(C)C | broth microdilution | MSSA ATCC 29213 | Mueller-Hinton broth | > 45.5 µM
CC(C)C[C@H](NC(=O)[C@H](CC(C)C)NC(=O)[C@H](CCCNC(=N)N)NC(=O)[C@H](CCCNC(=N)N)NC(=O)[C@H](CC(C)C)NC(=O)[C@H](CC(C)C)NC(=O)[C@H](CCCNC(=N)N)NC(=O)CCCCCNC(=O)/C=C/c1ccc(O)c(O)c1)C(=O)N[C@@H](CCCNC(=N)N)C(N)=O | broth microdilution | ATCC 25923 | 24 h, 37 °C | 73 µM
CC[C@@H](C)[C@@H](NC(=O)[C@@H](C)NC(=O)[C@@H](CCCCN)NC(=O)[C@@H](CC(C)C)NC(=O)[C@@H](C)NC(=O)[C@H](NC(=O)[C@@H](Cc1c[nH]cn1)NC(=O)[C@@H](CC(C)C)NC(=O)[C@H](NC(=O)[C@H](NC(=O)[C@@H](CCCCN)NC(=O)[C@@H](CCCCN)NC(=O)[C@@H](C)NC(=O)[C@@H](CO)NC(=O)[C@@H](CCCCN)NC(=O)[C@@H](Cc1ccccc1)NC(=O)[C@H](NC(=O)[C@@H](CCCCN)NC(=O)[C@@H](CC(C)C)NC(=O)[C@@H](Cc1ccccc1)NC(=O)[C@@H](CO)NC(=O)[C@@H](CCCCN)NC(=O)[C@@H](Cc1c[nH]c2ccccc12)NC(=O)[C@@H](CCCCN)NC(C)=O)[C@H](C)O)[C@H](C)O)C(C)C)[C@H](C)O)C(=O)N[C@H](CO)C(=O)N[C@H](CO)C(N)=O |  | ATCC 3923 |  | 64 µg/mL
C/C(=N\NC(=N)N)c1nnn(-c2ccc(S(=O)(=O)NCCCCC(C)C)cc2)c1C | microbial growth, broth dilution | MRSA USA300 | drug-resistant strain | > 64 µg/mL
C=CCCC[C@@H]1NC(=O)[C@H](CC(C)C)NC(=O)[C@H](C)NC(=O)[C@H](NC(=O)[C@H](CO)NC(=O)[C@@H](CCCCN)NC(=O)[C@@H](CCCC=C)NC(=O)[C@@H](N)Cc2ccccc2)[C@H](C)OC1=O |  | MSSA ATCC 29213 | TFA salt | 4 µg/mL
NC(=O)c1c(F)ccc(OCc2nc3cc(Cl)cnc3s2)c1F | microbial growth | ATCC29247 | drug-resistant strain, clinical isolate | 1 µg/mL

For quick reference, copied from above:
Structure (SMILES) | test | system | conditions | MIC
CC[C@H](C)[C@H](N)C1=N[C@H](C(=O)N[C@@H](Cc2ccccc2)C(=O)N[C@H](CCC(=O)O)C(=O)N[C@H](C(=O)N[C@H]2CCCCNC(=O)[C@H](CC(N)=O)NC(=O)[C@@H](CC(=O)O)NC(=O)[C@H](Cc3c[nH]cn3)NC(=O)[C@@H](Cc3ccccc3)NC(=O)[C@H]([C@@H](C)CC)NC(=O)[C@@H](CCCN)NC2=O)[C@@H](C)CC)CS1 |  | USA300 MRSA | 18 h, 37 °C, with: ZnSO4 0.3 mM | 2 µg/mL
